Literature values as cited in several papers.
Protocols differ between the studies behind these lines. Values joined by “and” are separate records of one study, mostly repeats; a detail may differ. Numbers after ± are the reported error.

N#CC1=C(N)Nc2c(ccc3[nH]c4ccccc4c23)C12C(=O)N(Cc1cn(Cc3ccc(Cl)cc3)nn1)c1ccc(Br)cc12 (centres unmarked)
IC50 (HeLa; cell growth): 3.83 µM

CC1=C(CO)C(=O)O[C@@H]([C@@H](C)[C@H]2CC[C@H]3[C@@H]4C[C@H]5O[C@]56[C@@H](O)C=CC(=O)[C@]6(C)[C@H]4CC[C@]23C)C1
IC50 (Hs-578T; cell growth): 1.19 µM

Cc1ccc2nc(SCC(=O)N/N=C3\C(=O)Nc4ccc([N+](=O)[O-])cc43)n(-c3ccccc3)c(=O)c2c1
IC50 (colorectal and breast cancer lines; cell growth; average over cell lines): 10 µM

c1ccc2c(-c3nnc(-c4c[nH]c5ccccc45)o3)c[nH]c2c1
IC50 (HeLa): 0.02 µM

CCN(CC)CC(=O)Nc1cccc(-n2cc(-c3ccc4ccc(-c5cn(-c6cccc(NC(=O)CN(CC)CC)c6)nn5)cc4c3)nn2)c1
IC50 (786-0): 2.3 µM

Oc1cccc(-c2cccc(O)n2)n1.[Cl-].[Cl-].[Ru+2].c1cnc2c(c1)ccc1cccnc12.c1cnc2c(c1)ccc1cccnc12
IC50 (MCF-10A; cell viability; dark): 110 µM

N#Cc1c(NC(=O)CN2CCSCC2)c(C(=O)c2ccccc2)n2c1CCC2
IC50 (MCF-7; cell growth): 0.0086 µM

CCN(CC)c1ccc2nc3c4ccccc4/c(=N/c4ccncc4)cc-3oc2c1
IC50 (L6 rat myoblasts; cytotoxicity): 22 µg/mL

CCC1=C(O)c2c(oc(-c3ccc(OC)c4ccccc34)cc2=O)C(CC)(CC)C1=O
IC50 (PC-3; cell growth, SRB): 2.39 µM

CC1=C2[O][Ru-]([Cl])[O+]=C2C=CN1CCCN1C=CC2=[O+][Ru-]([Cl])[O]C2=C1C.Cc1ccc(C(C)C)cc1.Cc1ccc(C(C)C)cc1
IC50 (A2780; MTT): 25 ± 2 µM

CCC1=C(O)c2c(oc(-c3ccc4ccccc4c3)cc2=O)C(CC)(CC)C1=O
IC50 (HCT-8; cell growth, SRB): 1.29 µM

O=C1OCC2=C1C(c1ccccc1[N+](=O)[O-])C1=C(N2)C(=O)c2ccccc2C1=O (centres unmarked)
IC50 (SK-LU-1 cells; cell growth): 0.08 ± 0.01 µM

CC(=O)OC1CC2C3C(OC(C)=O)C4OC45C(O)C=CC(=O)C5(C)C3CCC2(C)C1C(C)(O)C1CC(C)=C(C)C(=O)O1 (centres unmarked)
IC50 (BC1; cell growth): 0.38 µM

O=C1OCC2=C1C(c1cccc(Br)c1)C1=C(N2)C(=O)c2ccccc2C1=O (centres unmarked)
IC50 (SK-LU-1 cells; cell growth): < 0.036 µM

CC1=C(C)C(=O)OC(C(C)(O)C2CCC3C4CC5OC56C(O)C=CC(=O)C6(C)C4CCC32C)C1 (centres unmarked)
IC50 (Hep3B; cell growth): 1 µM

COc1ccccc1NC(=O)N[C@H](C(=O)Nc1ccc(C(=O)NO)cc1)c1ccccc1
IC50 (U-937; cell viability, MTT): 1.3 µM and 1.31 µM

O=C1c2ccccc2NC(c2ccc([N+](=O)[O-])cc2)N1/N=C/c1ccc([N+](=O)[O-])cc1 (centres unmarked)
IC50 (human renal tubule TH-1; cytotoxicity): 896 µM

O=C(/C=C/c1ccc(O)c(O)c1)NCCc1ccc(O)c(O)c1
IC50 (RAW264.7; nitric oxide production; 24 h, with: LPS 100 ng/mL): 39.1 ± 3.53 µM

Cc1ccc2nc(SCc3cn(-c4cccc(C(=O)O)c4)nn3)n(Cc3ccccc3)c(=O)c2c1
IC50 (HeLa): 7.55 µM

CCCCn1cc(C(=O)O)c(=O)c2cc(F)c(Nc3cccc(Cl)c3)c(N)c21
IC50 (T47D): < 50 µM

Repeated from above:
CCC1=C(O)c2c(oc(-c3ccc4ccccc4c3)cc2=O)C(CC)(CC)C1=O
IC50 (HCT-8; cell growth, SRB): 1.29 µM

O=C1OCC2=C1C(c1ccccc1[N+](=O)[O-])C1=C(N2)C(=O)c2ccccc2C1=O (centres unmarked)
IC50 (SK-LU-1 cells; cell growth): 0.08 ± 0.01 µM

CC(=O)OC1CC2C3C(OC(C)=O)C4OC45C(O)C=CC(=O)C5(C)C3CCC2(C)C1C(C)(O)C1CC(C)=C(C)C(=O)O1 (centres unmarked)
IC50 (BC1; cell growth): 0.38 µM
